Experimental data gathered from unrelated publications.
Protocols differ between the studies behind these lines. ± gives the spread as reported.

SMILES	cell line	test	system	setting	IC50
COC(=O)CNc1cc(C[S+]([O-])c2ccc3cc(Br)ccc3c2)ccc1OC (stereo not drawn)	SCC-15	cell growth or viability, MTS	–	48 h	3.25 µM
CC#N.[Ru+2].c1ccc(-c2cccc(-c3ccccn3)n2)nc1.c1ccc(-c2ccccn2)nc1	HL-60	cell viability	–	with: light 22 J/cm^2	> 100 µM
CC1(C)CCC(CN2CCN(c3ccc(C(=O)NS(=O)(=O)c4ccc(NCC5COCCO5)c([N+](=O)[O-])c4)c(N4CCCOc5nc6[nH]ccc6cc54)c3)CC2)=C(c2ccc(Cl)cc2)C1 (stereo not drawn)	OSU-CLL	cell viability, CellTiter-Glo	–	72 h	0.00026 µM
CC(C)(C)c1cc(=O)n2ncc(-c3ccc(F)cc3)c2[nH]1	HCT-116 3D tumour organoids	cytotoxicity	0.4% DMSO	72 h, 2% Matrigel	5.86 µM
COc1cc(/C=C/C(=O)/C=C(O)/C=C/c2ccc(OCC(=O)N3CCOCCOCCOCCOCCOCC3)c(OC)c2)ccc1OCC(=O)N1CCOCCOCCOCCOCCOCC1	U-251	cell growth or viability, SRB	–	–	5.4 µM
CC(C)=CCOc1ccc(-c2coc3cc4c(c(O)c3c2=O)C=CC(C)(C)O4)cc1	KKU100	cell growth or viability, MTT	–	24 h	> 100 µM
COCCOCCOCCOc1ccc(/C=C/C2=[N+]3C(=C(c4cc(OC)cc(OC)c4)c4c(C)c(I)c(/C=C/c5ccc(OCCOCCOCCOC)cc5)n4[B-]3(F)F)C(C)=C2I)cc1	HEp-2	cell growth or viability, resazurin	–	24 h, dark	> 400 µM
Cl.[Cl][Ru-4]123([n+]4ccccc4-c4cccc([n+]41)-c1cccc[n+]12)[n+]1ccc(-c2ccccc2)c2ccc4c(-c5ccccc5)cc[n+]3c4c21	HEL 299	cell growth or viability, resazurin	–	72 h	28.2 µM
O=C(Nc1ccccc1)c1ccccc1-n1c(=O)[nH]c2ccc(F)cc2c1=O	B16-F10	cell growth or viability, MTT	–	24 h	32.4 µM
COc1cccc(-c2ccc(Nc3ccc(CN(C)C)cc3)c(OC)c2F)c1	SNU-1 (KRAS G12D)	cell viability, CellTiter-Glo	–	72 h	7.2 ± 1.2 µM
C=C(C)[C@@H]1CC[C@]2(COC(=O)CCC(=O)O)CC[C@]3(C)[C@H](CC[C@@H]4[C@@]5(C)CC[C@H](OC(=O)CCC(=O)O)C(C)(C)[C@@H]5CC[C@]43C)[C@@H]12	HDF	cell growth or viability, SRB	–	72 h	14.8 µg/mL
COc1ccc(-c2nn(-c3ccccc3)cc2/C=C(\C#N)c2nc3ccccc3[nH]2)cc1	ASPC1	cell growth or viability, ATP luminescence	–	72 h	62.4 µM
[Cl][Pd-]1([Cl])[S]C(Nc2ccccc2)=N[N+]1=Cc1cccs1	HEL human lung fibroblasts	cell proliferation	–	–	13.3 µM
O=C1CC[C@H](N2Cc3cc(-c4cnn5ccc(NCCN6CCOCC6)nc45)ccc3C2=O)C(=O)N1	MOLM-13	cell growth, CellTiter luminescence	–	72 h	> 0.1 µM
COC(=O)[C@@H](Cc1cn(Cc2ccc(Cl)cc2)nn1)NC(=O)OCC1c2ccccc2-c2ccccc21	ASPC1	cell growth or viability, MTS	–	72 h	> 100 µM
CSCC[C@H](NC(=O)[C@H](Cc1ccc(OP(=O)(O)O)cc1)NC(=O)CNC(=O)CNC(=O)[C@H](CC(=O)O)NC(=O)[C@H](CO)NC(=O)[C@H](CCC(=O)O)NC(=O)CN)C(=O)N[C@@H](CC(=O)O)C(=O)N[C@@H](CCSC)C(=O)N[C@@H](CO)C(=O)N[C@@H](CCCCN)C(=O)N[C@@H](CC(=O)O)C(=O)N[C@@H](CCC(=O)O)C(=O)N[C@@H](CO)C(=O)N[C@@H](CCCCNC(=O)CNC(=O)[C@H](CCCCN)NC(=O)[C@H](CCCNC(=N)N)NC(=O)[C@H](Cc1ccccc1)NC(=O)[C@H](CCCNC(=N)N)NC(=O)[C@H](CCCNC(=N)N)NC(=O)[C@H](CCCNC(=N)N)NC(=O)[C@H](CO)NC(=O)[C@H](Cc1ccc(O)cc1)NC(=O)[C@H](CO)NC(=O)[C@H](CC(C)C)NC(=O)[C@H](CCCNC(=N)N)NC(=O)[C@@H](N)CCCNC(=N)N)C(N)=O	HPASMC	PDGF-induced ERK phosphorylation, inhibitor, Western blot, refers to: phospho-ERK1/2	–	30 min preincubation, serum-free medium, with: PDGF 1 ng/mL, 10 min	24.4 µM
CC(C)c1cccc(C(C)C)c1N1CCN(c2c(C(C)C)cccc2C(C)C)C1=[Se].[Cl][Ag]	H157 lung carcinoma cells	cell viability, MTT	–	72 h	1.4 ± 0.4 µM
COc1c(O)cc2oc3cc4c(c(O)c3c(=O)c2c1CC=C(C)C)CC(O)O4 (stereo not drawn)	BEAS-2B	cell growth or viability	–	–	27.2 µM
